Results from different studies.
Parts stem from different laboratories: compare values within a part only.

Series 1
Target: RING finger protein unkempt homolog, zinc fingers 1-6, GST-SBP tag (UNK, Homo sapiens, UniProt Q9C0B0, residues 30-357)
Technique: RNA Bind-n-Seq
Molecule type: RNA
Sample: in vitro
Concentration: not given
Notes: RNA with constant flanks, human and mouse sites, ends assumed
Baseline: input RNA pool
Direction: higher = stronger binding
Target sequence (chain): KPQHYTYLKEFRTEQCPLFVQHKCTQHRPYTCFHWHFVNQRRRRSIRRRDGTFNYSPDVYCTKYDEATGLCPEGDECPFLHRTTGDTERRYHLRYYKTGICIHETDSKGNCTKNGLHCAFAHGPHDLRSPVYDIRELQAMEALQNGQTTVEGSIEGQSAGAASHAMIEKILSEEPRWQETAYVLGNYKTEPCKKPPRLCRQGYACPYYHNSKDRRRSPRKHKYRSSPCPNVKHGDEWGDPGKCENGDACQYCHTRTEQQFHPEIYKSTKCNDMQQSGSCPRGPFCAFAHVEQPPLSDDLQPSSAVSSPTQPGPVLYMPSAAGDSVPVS
Oligonucleotide | bound/input enrichment [ratio]
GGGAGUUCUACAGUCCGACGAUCUUCACUCCUUUUGGGUUUGUUGUUCUUCAAGGAAACAAGAGGGUCCACUUCAUUAAAUGGAAUGAGGUGACCAAGCUGAAAUUUGAAGGAAAGACUUUCUAUUUAUACGUAAGUCAGAAACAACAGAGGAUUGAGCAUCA | 0.135
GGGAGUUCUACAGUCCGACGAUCUUGAAACUGUAUGACGUUGCUGUAUCAAAGUUGUAAAAUUAAGCAUUAUUUAUUGAAAACUAUGUAUUUUUUUGUAAAAACCUGAUCACACAAGAGAGUAUCAGUGGCUUGUGCUUUGUGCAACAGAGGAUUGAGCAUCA | 0.199
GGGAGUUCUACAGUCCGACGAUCAUUCUGAAUAUAUUUUUUUCUGUAAUUUUAUCAUUACACGAUGUUUGCAAUACGUGCUUUGUUUUUUAAUUUGAAAGCAAACUUUUCUACUGUUGAAAGACAUUUUUUGACAACUUGACCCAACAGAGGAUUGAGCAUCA | 0.962
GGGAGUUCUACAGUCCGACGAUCUAGCGCCAUCUCAAAGGCCAUCUUUCCACCCUGGCAUGUGGCUAGGGUGUGUCCUGGAUCCAUAGGGUGGGAGGAGGAGCCAGAUGGGUUUAUGAUACAUGGCUGUUUGAGAGUUCCCAUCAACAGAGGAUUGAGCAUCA | 0.0646
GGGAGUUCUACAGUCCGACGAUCUUCCUUCUGCAUAAGGUUUUUGUAGUGUGAUGUCUUAAUCAUAGUCUACCAUCAAAUACUUUAGGAGUAUCCUUAAUGUUUAGAUAGAAUAUUAGCAGCAUGCAAUAAUUACAUCCUAAGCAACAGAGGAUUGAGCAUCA | 5.2
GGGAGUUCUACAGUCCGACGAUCGCUGCUAGGCCCCUUGAAAACAGAGCAGGGGGGCCUGUGGCACGUUCAGAGGAGCCUGGUGCCCCGCUGCCCGUGGCCGUCGGCACUGCCGAGCCAGGGGGCAGUAUGAAGACCACAUUCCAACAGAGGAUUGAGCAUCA | 0.0922
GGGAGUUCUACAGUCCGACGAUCAGAACUUCAGUAAAUUCUCAGAGAGAAUACCAGCUAGUGAAACUACUUUUGGAUAAUACUCAAAUUAUGAAUGCUCUACAGAAAUACUCCAACUGCCCUACAGAUGUUAGGCAGUGGGCACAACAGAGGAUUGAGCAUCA | 1.28

Series 2
Target: RNA binding protein fox-1 homolog 2, RRM domain, GST-SBP tag (RBFOX2, Homo sapiens, UniProt O43251-10, residues 100-194)
Technique: RNA Bind-n-Seq
Molecule type: RNA
Sample: in vitro
Concentration: 365 nM
Notes: natural RNA segment, single round, ends assumed
Baseline: no-protein control
Direction: higher = stronger binding
Target sequence (chain): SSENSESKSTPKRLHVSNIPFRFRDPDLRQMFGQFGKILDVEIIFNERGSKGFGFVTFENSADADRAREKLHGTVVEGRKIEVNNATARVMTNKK
Oligonucleotide | RBNS enrichment (R)
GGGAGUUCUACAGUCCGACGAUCUUUGUUCUGGCAGUGAGUCAAGUGUCCAGCAUUUUUUCAUAAGUGUUUUUUAAAAUUGUUCUCCAGCAUUUUAUGGCUCCUCCCUCCCAUGUCCUCAGACCCAGCAAAAGUGGAAUUCUCGGGUGCCAA | 0.67
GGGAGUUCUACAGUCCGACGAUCUGUGGAUGCAUGGCUAUCGCCCUGAACAGUCCCUGCAGCUACUUGUGUUAACACAGAACUGAUGUUUAGCAUUCUGCCGCUUUCGUAUUUAUGUAACAAUUCCUUAAAGCUGGAAUUCUCGGGUGCCAA | 0.53
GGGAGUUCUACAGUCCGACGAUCUUCAAUAGAAGCUGGAUCCUUAAUACUGCAUUUUCUGAAUUCUGUUUUAAUAUUUGUGUUAAAGUAGACAUAGCUGAACUCACAUGGAAUCCUGGAGUUUUGUUAUCAGCUGGAAUUCUCGGGUGCCAA | 0.379
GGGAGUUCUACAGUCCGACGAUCUGUCUCCCUGAUUUUCUACAGCGCCAGGAUCCUAGUUUGGUGAGGUUUUAAAUUUAAUCUUAUUUUUAUAUAAAAUGAUUGCCAGACGUACUAUAUUAAGCUUGAAGAAGUGGAAUUCUCGGGUGCCAA | 0.687
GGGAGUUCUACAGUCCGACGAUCUUUAGCAAGCCCUGAGAUAUAGUAACUUCCUUGGUUAUGAGUCUUGUUGAAUGACUCCUUUUGGAAAGUUUAAACUCUGACAUGGCAUUGCCCUGGAAGUCUUGCCCCAUUGGAAUUCUCGGGUGCCAA | 0.434
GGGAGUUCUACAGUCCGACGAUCUACUCCGUGGGGAGCAUGUACAGAGCUCUGUGUAUACACAGCUUCACACCCACCAGAUUGUUACUACAGUGGGUUGGGUUUUCAUACAGACGUAAAUUUUGAGAGAAAAGUGGAAUUCUCGGGUGCCAA | 8.01
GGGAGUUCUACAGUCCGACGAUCUUGCACUAAAGAAAGCUUGUUAGAAAAAGCUUGCUGCUAUGGAAGAAAGAACAUAUUAAAACUUCUUUCCCUUGCGAUUUUUUUGGGGGAGGGGGGUUAGCAUUUCCACUUGGAAUUCUCGGGUGCCAA | 0.359
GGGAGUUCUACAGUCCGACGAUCAGGAGUUCAGUUGUGAGGAAAGAAGGCUGGAGCUGUGAGAUUCGCUUUUCCCUAGGCUGUUCCGCGUGGGUUACCUUAUCACCCUGGAGCACUUGGUAUUCCAGACCCCUUGGAAUUCUCGGGUGCCAA | 0.283
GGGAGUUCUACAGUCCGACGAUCCCUCUGGGCAGCCUGGCGUGGGGACACUUGUUCUGUUCUGUCAUAUCCAAAACAAACUCCAUCCCCCCCAAGGCAGCCCAAAUAUCCAGAAACGGGCUCACCUGGACUAUUGGAAUUCUCGGGUGCCAA | 0.276

Series 3
Target: Phosphate system positive regulatory protein PHO4, full length, GST-tagged (PHO4, Saccharomyces cerevisiae, UniProt P07270, residues 1-312)
Technique: competition protein-binding microarray
Molecule type: double-stranded DNA, one strand shown
Sample: in vitro
Concentration: 2 µM
Notes: whole 60-bp probe, lowest competitor level
Together with: Cbf1 competitor, 0.05 µM
Direction: higher = stronger binding
Target sequence (chain): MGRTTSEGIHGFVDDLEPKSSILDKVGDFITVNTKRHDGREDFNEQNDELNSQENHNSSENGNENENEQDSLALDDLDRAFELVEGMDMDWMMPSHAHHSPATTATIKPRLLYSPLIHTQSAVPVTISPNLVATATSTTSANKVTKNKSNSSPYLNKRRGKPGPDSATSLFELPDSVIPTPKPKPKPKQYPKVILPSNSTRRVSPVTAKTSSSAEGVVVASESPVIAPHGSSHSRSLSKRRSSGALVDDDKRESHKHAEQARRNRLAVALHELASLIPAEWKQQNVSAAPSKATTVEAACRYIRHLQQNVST
Oligonucleotide | fluorescence intensity [a.u.]
CATACCCAACCTTGCTCTGTGGGTGAAGATATTTGTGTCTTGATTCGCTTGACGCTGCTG | 4270
GTCTTGTCTCATTGTCGAGTGGGTGTCCCCACTTCAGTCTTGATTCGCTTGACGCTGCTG | 6080
AAAGCGGTAATTTGTAGGGTGGGTGCAGATATCTATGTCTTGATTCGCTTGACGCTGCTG | 4650
CTTCTGTAAATTTTTCACGTGTTATGACGCGCCCCGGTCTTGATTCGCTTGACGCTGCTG | 13700
AAATTACTAAGTTGCGGAGTGGGTGACGCCGTATGAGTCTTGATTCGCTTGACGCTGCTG | 3950
CATACCCAACCTTGCTTGGTGGGTGAAGATATTTGTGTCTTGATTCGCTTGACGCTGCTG | 3980
TGTTAAAGTTGTATCCATGTGTGCCCATAATGCCGAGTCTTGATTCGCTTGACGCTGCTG | 8560
AAACAGTGCTCAATAATCGTGACGGGAGGGTCATTAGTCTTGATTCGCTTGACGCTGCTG | 5090
CTTTCCCGATCTTGTGCCGTGGGTGTAGCACATTTGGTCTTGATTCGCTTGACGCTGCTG | 6340
CTTCTGTAAATTTGATGGGTGGGTGGACGCGCCCCGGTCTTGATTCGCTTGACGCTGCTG | 4150
CTGCCGTTGCTTCAGCACATGTTCCAAAAGACCTTGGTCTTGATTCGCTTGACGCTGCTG | 10700
TTTACCCCTGGTACCCACGTCCAGTTCGCTTATCTCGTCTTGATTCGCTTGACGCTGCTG | 4760
GAAAGATGTAGAAAACTCGTGGAGGTAGGATTATACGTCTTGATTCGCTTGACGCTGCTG | 9500
CTTTCCCGATCTTGTCACATGACTTTAGCACATTTGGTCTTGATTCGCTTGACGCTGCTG | 6090
CTTCTGTAAATTTGTGTCGTGGGTGGACGCGCCCCGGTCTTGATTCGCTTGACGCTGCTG | 6150
AAAGCGGTAATTTGCGCTGTGGGTGCAGATATCTATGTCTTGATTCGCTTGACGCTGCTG | 4050
CATACCCAACCTTTTCACGTGATTTAAGATATTTGTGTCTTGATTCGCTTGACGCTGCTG | 14100
AAAGCGGTAATTTGAATAGTGGGTGCAGATATCTATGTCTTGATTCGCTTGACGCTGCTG | 4300
ACAAAATTGCAGGGCAACGTGTATCATTCAGTAGAGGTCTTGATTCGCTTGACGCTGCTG | 13400
CTTTCCCGATCTTGACCGGTGGGTGTAGCACATTTGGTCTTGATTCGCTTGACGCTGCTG | 4190
TGGTCTTTGAACAAGATCATGCCATTCTGGGCTGGCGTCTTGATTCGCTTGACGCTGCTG | 3950
TCTTCCGCGATGTTTCTCGTGGTGAGGCTATGGGCAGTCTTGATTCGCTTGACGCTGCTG | 6500
GATGGCCATTGATAACGCGTGAAATTTTCCAGGGTGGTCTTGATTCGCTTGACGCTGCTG | 4770
CGTCCTAGTGATTGCTTTGTGGGTGCCATGAGGAAGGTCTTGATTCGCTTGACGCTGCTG | 7300
TCTTTTTCGACCGGCCACGTGAGAAGACATACAGTTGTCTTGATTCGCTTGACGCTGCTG | 14900

Series 4
Target: Ras GTPase-activating protein-binding protein 1, RRM domain (G3BP1, Homo sapiens, UniProt Q13283)
Chain of UniProt Q13283 (whole entry, looked up): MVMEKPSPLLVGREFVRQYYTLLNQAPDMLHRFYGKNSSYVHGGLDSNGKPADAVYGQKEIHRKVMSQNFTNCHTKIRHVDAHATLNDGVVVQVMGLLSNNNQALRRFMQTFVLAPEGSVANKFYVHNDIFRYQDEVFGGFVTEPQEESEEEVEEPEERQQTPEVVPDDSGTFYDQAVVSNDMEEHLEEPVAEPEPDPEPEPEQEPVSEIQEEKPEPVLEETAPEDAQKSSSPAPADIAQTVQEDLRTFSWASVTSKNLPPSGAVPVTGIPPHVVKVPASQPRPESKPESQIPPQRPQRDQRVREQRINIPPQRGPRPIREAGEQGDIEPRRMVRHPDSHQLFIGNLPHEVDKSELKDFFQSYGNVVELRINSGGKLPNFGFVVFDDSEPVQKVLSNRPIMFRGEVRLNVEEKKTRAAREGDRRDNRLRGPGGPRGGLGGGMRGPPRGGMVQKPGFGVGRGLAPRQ
Technique: RNA Bind-n-Seq
Molecule type: RNA
Sample: in vitro
Concentration: 1 µM
Notes: whole 134-nt RNA, ends assumed
Together with: 150 mM KCl
Baseline: input library
Direction: higher = stronger binding
Oligonucleotide | log2 enrichment
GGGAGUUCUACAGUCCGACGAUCGCAGGAAGUAAAAACAAAUGGAAAUGCUUCGGAUAGUGGCAUGGGUGGGGGUUGCUAAGGAAAGGGUGGGAUGGGAGUGGGUAAAGAGUUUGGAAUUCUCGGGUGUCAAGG | 0.81
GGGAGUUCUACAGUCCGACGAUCUCAAGUCCUGUGCUACACAUCGUAUGUACCGAAUCGGAAAAAGGUGGAAAAAGGAAAGUAUUAUGUUACGCCGUUCGGAUCUGCACUUCCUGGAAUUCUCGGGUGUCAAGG | -0.125
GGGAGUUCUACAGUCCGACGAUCCUUAUGCCUUCCCCACUGGUAUUGAGGGUUUUGAUAAUAAAUUGGUAGGAAAAAAAAGUACCUCCUAGAAGGAAGCCUUCCCCACCAUUUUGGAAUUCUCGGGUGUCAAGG | -0.176
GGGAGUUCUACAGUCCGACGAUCCCUGUGCUACACAUCGUAUGUACCGAAUCGGGGAAAAAAAGGGGUUUGGGGUUUUUGGGGAAAGUAUUAUGUUACGCCGUUCGGAUCUGCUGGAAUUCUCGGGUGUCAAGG | 0.941
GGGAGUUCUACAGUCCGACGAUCAGUCCUGUGCUACACAUCGUAUGUACCGAAUCGGUUUUUGGAAAAAGGAAAAAAAGGAAAGUAUUAUGUUACGCCGUUCGGAUCUGCACUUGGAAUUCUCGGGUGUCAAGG | 0.0366
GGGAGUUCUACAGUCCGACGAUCUAACUUUAGAGGAGGAUCUGAUGGAUAUGGCAGUGGACGUGGAUUUGGGGAUGGCUAUAAUGGGUAUGGAGGAGGACCUGGAGGUGCCAAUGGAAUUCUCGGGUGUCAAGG | -0.389
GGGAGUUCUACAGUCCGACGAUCUGGCCCUUGUGGCAUGCGGGGAGGAAGAGGUGGCCUCAUGGAUCGUGGUGGUCCCGGUGGAAUGUUCAGAGGUGGCCGUGGUGGAGACAGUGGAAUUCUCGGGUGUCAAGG | 0.383
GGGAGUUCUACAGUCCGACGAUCAGUCCUGUGCUACACAUCGUAUGUACCGAAUCGGGGAGGGGAAAAAGGGGAAAGGGGAAAGUAUUAUGUUACGCCGUUCGGAUCUGCACUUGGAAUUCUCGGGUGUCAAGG | 1.24
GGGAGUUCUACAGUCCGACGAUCUCCCCCCUAUUGGAAGUAAAGGGGAACAUAGAACUGAAGAGACCUCUGAUUAAGGCCCCUUCCCAGCUGCCUCUCUCAGGAAGCAGACUCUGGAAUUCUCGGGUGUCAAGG | -0.359
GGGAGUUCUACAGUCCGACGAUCUAGCAAGCCAAAUUACAGCAGCAGAUGGACCUGCAGAAAAAUCACAUUUUCCGUCUGACUCAAGGACUGCAAGAAGCUCUAGAUCGGGCUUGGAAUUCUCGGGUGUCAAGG | -0.174
